# Measured values gathered from unrelated publications.
# Compare with care: the assays were run in different laboratories. ± gives the spread as reported.
# Organism: HIV-1
SMILES,test,system,conditions,IC50 [nM]
Cc1ccnc2c1NC(=O)c1cccnc1N2C1CC1,viral replication,HEK293T,,20 ± 3
CC[C@H](C)[C@H](NC(=O)[C@H](CC(C)C)NC(=O)[C@H](CCC(=O)O)NC(=O)[C@H](CCC(=O)O)NC(=O)[C@@H](NC(=O)[C@H](CCCCN)NC(=O)[C@H](CCCCN)NC(=O)[C@@H](NC(=O)[C@H](Cc1ccc(O)cc1)NC(=O)[C@H](CCC(=O)O)NC(=O)[C@H](CCC(=O)O)NC(=O)[C@@H](NC(=O)[C@H](CCCCN)NC(=O)[C@H](CCCCN)NC(=O)[C@H](CC(=O)O)NC(=O)[C@H](Cc1c[nH]c2ccccc12)NC(=O)[C@H](CCC(=O)O)NC(=O)[C@H](CCC(=O)O)NC(=O)[C@H](Cc1c[nH]c2ccccc12)NC(=O)[C@@H](NC(=O)[C@@H](N)CCSC)[C@@H](C)O)[C@@H](C)CC)[C@@H](C)O)[C@@H](C)CC)C(=O)N[C@@H](CCCCN)C(=O)N[C@@H](CCCCN)C(=O)N[C@@H](CO)C(=O)O,virus neutralization,CZA97,,6.8 ± 1.6
N#C[C@]1(CO)O[C@@H](n2cnc3c(N)nc(N)nc32)C[C@@H]1O,,NL4-3 wild type,,0.16
CC(=O)N[C@@H](CC(C)C)C(=O)N[C@@H](CS)C(=O)N[C@@H](CC(=O)O)C(=O)N[C@@H](CS)C(=O)N1CCC[C@H]1C(=O)N[C@@H](CC(N)=O)C(=O)NCC(=O)N1CCC[C@H]1C(=O)N[C@@H](Cc1c[nH]c2ccccc12)C(=O)N[C@H](C(=O)N[C@@H](Cc1c[nH]c2ccccc12)C(=O)N[C@H](C(=O)N1CCC[C@H]1C(=O)N[C@@H](C)C(=O)N[C@@H](Cc1ccccc1)C(=O)N[C@@H](CS)C(=O)N[C@@H](CCC(N)=O)C(=O)N[C@@H](C)C(=O)N[C@H](C(=O)N[C@@H](CC(=O)O)C(N)=O)C(C)C)C(C)C)C(C)C,"viral replication, inhibitor, SEAP reporter","CEMx174 SEAP reporter, NL4-3",3 days,4610 ± 1060
Cc1cn([C@H]2C[C@H](N=[N+]=[N-])[C@@H](CO)O2)c(=O)[nH]c1=O,viral cytopathicity,"MT4 cells, wild type",,37
COc1cc(-c2oc3cc(O)cc(O)c3c(=O)c2O)ccc1O,viral replication,"TZM-bl, NL4-3, CXCR4-tropic",48 h,640
"Cc1nc([C@@H](CN)NC(=O)c2ccc(-c3ccc(F)c(F)c3)[nH]2)sc1CO (single isomer, unassigned)",viral infection,"TZM-bl, recombinant subtype A Env pseudoviruses",mean over panel,4330 ± 390
CC(C)(C)C(=O)OCOP(=O)(COCCn1cnc2c(N)ncnc21)OCOC(=O)C(C)(C)C,"viral replication, MTT",MT4,,240 ± 120
CCCCCCCCCC(=O)Oc1ccc(/C=C/C(=O)CC(=O)/C=C/c2ccc(OC(=O)CCCCCCCCC)c(OC)c2)cc1OC,"viral replication, MTT","MT-4, IIIB",,> 81
Cc1cn([C@H]2C[C@H](N=[N+]=[N-])[C@@H](CO)O2)c(=O)[nH]c1=O,virus neutralization,CZA97,,185 ± 26.4
C=C1[C@H](CO)[C@@H](O)C[C@@H]1n1cnc2c(=O)[nH]c(N)nc21,"viral replication, MTT",MT4,,~1000
